Published values gathered from unrelated publications.
Every numbered part comes from another study and shows a few of its results, in no order.
Chain of UniProt P08913 (whole entry, looked up): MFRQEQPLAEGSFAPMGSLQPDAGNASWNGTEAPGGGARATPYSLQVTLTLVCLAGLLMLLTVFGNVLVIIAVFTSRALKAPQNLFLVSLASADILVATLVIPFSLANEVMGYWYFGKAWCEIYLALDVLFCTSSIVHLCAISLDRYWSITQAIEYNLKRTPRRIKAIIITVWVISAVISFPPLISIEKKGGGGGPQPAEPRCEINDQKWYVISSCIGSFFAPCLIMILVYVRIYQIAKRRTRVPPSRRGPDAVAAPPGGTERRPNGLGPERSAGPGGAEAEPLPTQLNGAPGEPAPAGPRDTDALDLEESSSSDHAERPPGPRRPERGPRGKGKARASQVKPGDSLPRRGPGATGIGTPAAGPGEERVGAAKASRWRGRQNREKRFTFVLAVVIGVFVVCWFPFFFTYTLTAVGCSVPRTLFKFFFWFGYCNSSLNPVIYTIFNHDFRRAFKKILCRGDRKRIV
Chain of UniProt P08912 (whole entry, looked up): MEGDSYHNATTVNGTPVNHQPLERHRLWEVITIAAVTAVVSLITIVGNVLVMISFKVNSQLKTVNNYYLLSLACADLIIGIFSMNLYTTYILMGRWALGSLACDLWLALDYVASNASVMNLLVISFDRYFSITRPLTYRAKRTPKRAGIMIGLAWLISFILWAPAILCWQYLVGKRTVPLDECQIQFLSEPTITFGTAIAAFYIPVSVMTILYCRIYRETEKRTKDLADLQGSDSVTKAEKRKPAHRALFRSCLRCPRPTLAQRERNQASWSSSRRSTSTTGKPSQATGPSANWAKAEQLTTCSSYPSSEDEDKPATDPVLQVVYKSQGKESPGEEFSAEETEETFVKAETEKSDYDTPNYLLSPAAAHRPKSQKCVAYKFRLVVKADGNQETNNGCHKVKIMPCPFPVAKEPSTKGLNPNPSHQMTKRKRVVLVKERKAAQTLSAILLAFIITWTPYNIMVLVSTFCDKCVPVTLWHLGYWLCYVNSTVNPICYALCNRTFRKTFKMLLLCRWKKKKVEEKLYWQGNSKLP
Chain of UniProt P50406 (whole entry, looked up): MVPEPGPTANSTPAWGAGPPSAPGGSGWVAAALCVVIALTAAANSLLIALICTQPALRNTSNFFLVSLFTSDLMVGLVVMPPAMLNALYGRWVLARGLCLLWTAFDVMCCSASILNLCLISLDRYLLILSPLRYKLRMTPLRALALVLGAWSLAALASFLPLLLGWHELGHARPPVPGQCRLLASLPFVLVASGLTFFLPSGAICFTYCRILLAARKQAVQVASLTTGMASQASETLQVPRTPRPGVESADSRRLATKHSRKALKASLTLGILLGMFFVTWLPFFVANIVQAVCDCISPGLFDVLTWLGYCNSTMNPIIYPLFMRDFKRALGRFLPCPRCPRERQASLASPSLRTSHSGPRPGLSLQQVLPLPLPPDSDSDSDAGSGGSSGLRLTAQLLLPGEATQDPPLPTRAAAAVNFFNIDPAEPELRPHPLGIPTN
Chain of UniProt P34969 (whole entry, looked up): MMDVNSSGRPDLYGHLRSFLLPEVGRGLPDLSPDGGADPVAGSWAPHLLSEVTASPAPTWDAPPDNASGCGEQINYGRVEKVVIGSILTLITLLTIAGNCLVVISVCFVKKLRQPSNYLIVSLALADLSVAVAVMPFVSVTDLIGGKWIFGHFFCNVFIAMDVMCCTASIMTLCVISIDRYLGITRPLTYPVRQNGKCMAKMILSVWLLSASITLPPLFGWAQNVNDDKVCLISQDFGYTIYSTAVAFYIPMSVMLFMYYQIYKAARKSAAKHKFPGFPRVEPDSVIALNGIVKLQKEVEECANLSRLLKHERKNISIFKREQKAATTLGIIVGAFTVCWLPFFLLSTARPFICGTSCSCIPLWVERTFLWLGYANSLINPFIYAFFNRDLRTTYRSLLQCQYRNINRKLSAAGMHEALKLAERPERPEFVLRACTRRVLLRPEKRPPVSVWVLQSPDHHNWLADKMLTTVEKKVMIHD
Chain of UniProt P18825 (whole entry, looked up): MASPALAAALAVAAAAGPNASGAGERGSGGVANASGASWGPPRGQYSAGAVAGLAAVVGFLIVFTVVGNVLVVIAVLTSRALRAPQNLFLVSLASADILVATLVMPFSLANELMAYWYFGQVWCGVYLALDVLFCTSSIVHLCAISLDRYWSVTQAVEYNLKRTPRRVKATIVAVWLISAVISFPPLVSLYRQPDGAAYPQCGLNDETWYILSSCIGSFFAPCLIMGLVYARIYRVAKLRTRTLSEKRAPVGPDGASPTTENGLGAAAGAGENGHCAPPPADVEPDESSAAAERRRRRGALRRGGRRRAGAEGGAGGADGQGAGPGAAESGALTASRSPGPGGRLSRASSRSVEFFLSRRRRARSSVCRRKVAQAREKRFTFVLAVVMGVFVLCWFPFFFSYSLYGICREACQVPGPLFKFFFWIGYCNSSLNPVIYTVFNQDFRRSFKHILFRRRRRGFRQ
Chain of UniProt Q5BJF2 (whole entry, looked up): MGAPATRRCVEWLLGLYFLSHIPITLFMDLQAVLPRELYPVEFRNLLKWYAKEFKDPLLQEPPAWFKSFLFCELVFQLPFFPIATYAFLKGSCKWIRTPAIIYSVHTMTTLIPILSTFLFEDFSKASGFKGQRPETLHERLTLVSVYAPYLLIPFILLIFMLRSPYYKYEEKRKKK
Chain of UniProt P35367 (whole entry, looked up): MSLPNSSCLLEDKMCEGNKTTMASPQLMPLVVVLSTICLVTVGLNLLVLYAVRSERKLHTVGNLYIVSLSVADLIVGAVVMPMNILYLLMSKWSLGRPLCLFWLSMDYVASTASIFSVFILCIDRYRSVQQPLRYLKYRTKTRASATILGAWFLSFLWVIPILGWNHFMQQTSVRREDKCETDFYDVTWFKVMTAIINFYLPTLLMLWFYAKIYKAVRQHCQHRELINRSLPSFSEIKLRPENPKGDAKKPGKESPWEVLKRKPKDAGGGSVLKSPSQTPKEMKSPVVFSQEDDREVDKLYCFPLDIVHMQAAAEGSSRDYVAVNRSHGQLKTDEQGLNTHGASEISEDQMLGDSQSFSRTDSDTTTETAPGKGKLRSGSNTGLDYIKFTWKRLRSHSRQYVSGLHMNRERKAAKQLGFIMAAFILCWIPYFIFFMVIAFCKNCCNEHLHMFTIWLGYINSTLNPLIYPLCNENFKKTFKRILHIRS

Set 1
Target: RING finger protein unkempt homolog, zinc fingers 1-6, GST-SBP tag (UNK, Homo sapiens, UniProt Q9C0B0, residues 30-357)
Chain of UniProt Q9C0B0 (30-357, looked up): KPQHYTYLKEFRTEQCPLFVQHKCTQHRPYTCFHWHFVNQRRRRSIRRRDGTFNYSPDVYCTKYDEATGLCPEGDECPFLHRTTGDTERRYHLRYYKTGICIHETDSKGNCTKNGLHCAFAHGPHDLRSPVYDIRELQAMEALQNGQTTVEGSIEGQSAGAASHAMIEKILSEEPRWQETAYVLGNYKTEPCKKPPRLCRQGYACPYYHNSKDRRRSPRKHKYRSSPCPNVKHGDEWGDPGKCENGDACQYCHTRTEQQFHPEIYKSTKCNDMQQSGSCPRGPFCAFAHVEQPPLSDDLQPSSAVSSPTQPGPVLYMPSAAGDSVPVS
Technique: RNA Bind-n-Seq
Form: RNA
Sample: in vitro
Concentration: not given
Notes: RNA with constant flanks, human and mouse sites, ends assumed
Baseline: input RNA pool
Reading: higher = stronger binding
Measurement: bound/input enrichment
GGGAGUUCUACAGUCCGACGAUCUUUAGCUUCCUGGAGAGCCACAACAAGCUGGACAAAGACAACCUCUCCUACAUUGAGCACAUCUUUGAGAUCUCCCGCCGUCCUGACCUACUCACUAUGGUGGUUGACUACAGAACCCGUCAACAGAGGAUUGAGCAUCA: 0.143 ratio
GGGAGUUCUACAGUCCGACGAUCACAAUUCUUCAAGAAAAACUUCAAGAAAUCAGAAAACAUUAUCUGUCAUUAAAAUCUGAAGUAGCUUCCAUUGAUCGGAGGAGAAAGCGUUUAAAGAAGAAAGAGAGAGAAAGUGCUGCUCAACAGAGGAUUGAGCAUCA: 1.18 ratio
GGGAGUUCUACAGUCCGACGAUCGUGAAGAUGAAGAUGAAAUACUACAUCGAGUACAUGGAGAGCACUCGAGAUGAUAGUCCCCUUUACAUCUUUGACAGCAGCUAUGGUGAACACCCUAAAAGAAGGAAACUUUUGGAAGACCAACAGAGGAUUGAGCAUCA: 0.321 ratio
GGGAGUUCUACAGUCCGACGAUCGAAUUUGGGCAGGUUUUGGCUUCCUGUUCUUUUGACCGAACAGCUGCUGUAUGGGAAGAAAUAGUAGGAGAAUCAAAUGAUAAACUGCGAGGACAGAGCCACUGGGUUAAAAGGACAACUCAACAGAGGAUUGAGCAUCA: 0.588 ratio
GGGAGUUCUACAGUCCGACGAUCGAGGAAGUUCAUGAUCUCGAGAGGAAGUAUGCUGUUCUCUAUCAGCCUUUAUUUGAUAAGCGAUUUGAGAUCAUUAAUGCAAUCUAUGAACCUACAGAAGAAGAAUGCGAGUGGAAACCACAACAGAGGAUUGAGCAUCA: 0.14 ratio
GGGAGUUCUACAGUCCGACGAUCGUGCAUGAGCAUCUGCAUUAGCUCUGAAGACUUCUGCCCUCGGCUCCUCAUACAUUUAAUCACAUUUACACACCAAUUUUAUAAAAAUAGCAGUGUAGAUUCCAAGGGACUCUGAGCCUCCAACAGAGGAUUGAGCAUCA: 0.507 ratio
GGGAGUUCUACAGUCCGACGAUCGGCCCCAGCCCCGGCCGCUGUGGUGACUCCGCCGCGCCUCGCCGUCGCCCCCGUGCCGCCCGCCGCCCCCGCCGCCCCCGCCGCCGGGGACAUGUCUAACCCCGGAGGCCGGAGGAACGGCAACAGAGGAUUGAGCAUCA: 1.32 ratio
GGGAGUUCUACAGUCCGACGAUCUUAGAAAAUACAUUUGAAGGUCAUAAAAGUAAAAACAAGGAAGAUUGCGAUGAACGUGACUUACUUACUGUCAACCGGAAAAUAAAAAUAUCUAACCUUGAAAAGGAACAAAUGCUCACCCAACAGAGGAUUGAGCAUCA: 0.524 ratio

Set 2
Target: STE20-like serine/threonine-protein kinase (SLK, Homo sapiens, UniProt Q9H2G2)
Chain of UniProt Q9H2G2 (whole entry, looked up): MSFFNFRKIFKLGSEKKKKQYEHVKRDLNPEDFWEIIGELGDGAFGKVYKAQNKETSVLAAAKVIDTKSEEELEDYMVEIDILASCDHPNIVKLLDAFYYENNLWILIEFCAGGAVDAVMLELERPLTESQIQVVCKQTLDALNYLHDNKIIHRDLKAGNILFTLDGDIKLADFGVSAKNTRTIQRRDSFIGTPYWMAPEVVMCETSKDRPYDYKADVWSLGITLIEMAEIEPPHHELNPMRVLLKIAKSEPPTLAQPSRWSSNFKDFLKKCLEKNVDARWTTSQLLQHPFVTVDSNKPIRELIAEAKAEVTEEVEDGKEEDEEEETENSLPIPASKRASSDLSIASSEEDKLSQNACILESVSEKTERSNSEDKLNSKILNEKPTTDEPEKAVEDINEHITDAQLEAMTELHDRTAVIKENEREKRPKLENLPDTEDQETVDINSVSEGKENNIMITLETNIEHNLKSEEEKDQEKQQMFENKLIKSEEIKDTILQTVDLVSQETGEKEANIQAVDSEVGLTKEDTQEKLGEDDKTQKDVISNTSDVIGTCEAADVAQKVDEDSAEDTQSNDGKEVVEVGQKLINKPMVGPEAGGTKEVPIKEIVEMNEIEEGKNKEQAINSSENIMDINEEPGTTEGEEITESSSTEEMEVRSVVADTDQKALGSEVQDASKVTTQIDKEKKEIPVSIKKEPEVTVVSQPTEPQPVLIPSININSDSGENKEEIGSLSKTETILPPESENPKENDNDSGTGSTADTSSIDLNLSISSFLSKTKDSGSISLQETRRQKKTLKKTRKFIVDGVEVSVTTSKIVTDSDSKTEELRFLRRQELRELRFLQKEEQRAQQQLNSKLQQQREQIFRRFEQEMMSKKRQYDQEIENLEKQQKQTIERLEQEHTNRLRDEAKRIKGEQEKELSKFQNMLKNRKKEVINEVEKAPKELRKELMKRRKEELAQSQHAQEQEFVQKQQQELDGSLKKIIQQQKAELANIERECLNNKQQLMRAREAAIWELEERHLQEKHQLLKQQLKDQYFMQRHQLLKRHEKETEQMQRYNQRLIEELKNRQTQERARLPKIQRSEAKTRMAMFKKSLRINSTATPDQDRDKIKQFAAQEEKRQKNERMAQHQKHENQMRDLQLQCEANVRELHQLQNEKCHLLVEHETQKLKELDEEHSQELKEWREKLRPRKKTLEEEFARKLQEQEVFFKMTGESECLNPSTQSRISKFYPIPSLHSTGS
Read-out: enzyme activity
Mode: inhibitor
Concentration: 0.5 µM
Baseline: control
Measurement: remaining activity
OCC(O)CCON=C1C(c2c(O)[nH]c3ccccc23)=Nc2ccccc21 (stereo not drawn): 59.9%
CO[C@H]1C[C@@H]2CC[C@@H](C)[C@@](O)(O2)C(=O)C(=O)N2CCCC[C@H]2C(=O)O[C@H]([C@H](C)C[C@@H]2CC[C@@H](O)[C@H](OC)C2)CC(=O)[C@H](C)/C=C(\C)[C@@H](O)[C@@H](OC)C(=O)[C@H](C)C[C@H](C)/C=C/C=C/C=C/1C: 98.7%
COc1ccc(CNC(=O)Nc2ncc([N+](=O)[O-])s2)cc1: 88.9%
O=C(CCCc1ccc(-c2ccccc2F)cc1)Nc1ccc(O)cc1: 102%
O=C(Nc1cccc(Nc2cc(Nc3cccc(C(F)(F)F)c3)ncn2)c1)C1CC1: 102%
Nc1[nH]nc2nc3ccccc3nc12: 92.5%
CCOC(=O)c1c(C)[nH]c(/C=C2\C(=O)Nc3ccccc32)c1C: 89.8%
O=c1c2ccccc2[nH]c(=S)n1CCN1CCC(=C(c2ccc(F)cc2)c2ccc(F)cc2)CC1: 103%
COc1cc2ncnc(Nc3ccc(Oc4ccccc4)cc3)c2cc1OC: 88.7%
Cc1nc(-c2ccccc2)c(-c2ccncc2)o1: 101%
N#CC(C#N)=C(N)/C(C#N)=C/c1ccc(O)cc1: 102%
Cn1sc(=O)n(Cc2ccccc2)c1=O: 84.7%
NCCNc1ncc(C(N)=O)c(Nc2cccc(C(F)(F)F)c2)n1: 103%

Set 3
Target: TAR DNA-binding protein 43, full length, His tag (TARDBP, Homo sapiens, UniProt Q13148, residues 1-414)
Technique: RNA Bind-n-Seq
Form: RNA
Sample: in vitro
Concentration: 20 nM
Notes: 6-mer, flanks averaged, single round
With: 150 mM KCl
Baseline: input library
Reading: higher = stronger binding
Measurement: 6-mer enrichment (R)
AGCCGC: 0.832
AAGAUC: 0.597
UACAAA: 0.64
UCCAGU: 0.652
CAGAAC: 0.704
AUACCG: 0.657
UCCGCC: 0.615
CCACUA: 0.609

Set 4
Compound: O=C(NCc1ncc(C(F)(F)F)cc1Cl)c1ccc2c(c1)C1(CCS(=O)(=O)CC1)[C@@H](C1CC1)N2S(=O)(=O)c1ccc(F)cc1
Read-out: ligand displacement
Concentration: 10 µM
Measurement: inhibition
CHRM5 (Homo sapiens, UniProt P08912): -1.92%
ADRA2C (Homo sapiens, UniProt P18825): 15.7%
HTR6 (Homo sapiens, UniProt P50406): -11.2%
HTR7 (Homo sapiens, UniProt P34969): -4.83%
ADRA2A (Homo sapiens, UniProt P08913): 6.57%
TMEM97 (Homo sapiens, UniProt Q5BJF2): 52.7%
HRH1 (Homo sapiens, UniProt P35367): 8.01%

Some of these lines once more (set 1):
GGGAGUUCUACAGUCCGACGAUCGAAUUUGGGCAGGUUUUGGCUUCCUGUUCUUUUGACCGAACAGCUGCUGUAUGGGAAGAAAUAGUAGGAGAAUCAAAUGAUAAACUGCGAGGACAGAGCCACUGGGUUAAAAGGACAACUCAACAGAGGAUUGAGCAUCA: 0.588 ratio
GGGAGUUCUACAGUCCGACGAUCGAGGAAGUUCAUGAUCUCGAGAGGAAGUAUGCUGUUCUCUAUCAGCCUUUAUUUGAUAAGCGAUUUGAGAUCAUUAAUGCAAUCUAUGAACCUACAGAAGAAGAAUGCGAGUGGAAACCACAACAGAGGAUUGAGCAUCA: 0.14 ratio
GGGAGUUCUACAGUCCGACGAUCGUGCAUGAGCAUCUGCAUUAGCUCUGAAGACUUCUGCCCUCGGCUCCUCAUACAUUUAAUCACAUUUACACACCAAUUUUAUAAAAAUAGCAGUGUAGAUUCCAAGGGACUCUGAGCCUCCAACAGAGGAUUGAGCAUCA: 0.507 ratio
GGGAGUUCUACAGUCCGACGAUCGGCCCCAGCCCCGGCCGCUGUGGUGACUCCGCCGCGCCUCGCCGUCGCCCCCGUGCCGCCCGCCGCCCCCGCCGCCCCCGCCGCCGGGGACAUGUCUAACCCCGGAGGCCGGAGGAACGGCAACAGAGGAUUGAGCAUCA: 1.32 ratio
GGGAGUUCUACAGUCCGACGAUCUUAGAAAAUACAUUUGAAGGUCAUAAAAGUAAAAACAAGGAAGAUUGCGAUGAACGUGACUUACUUACUGUCAACCGGAAAAUAAAAAUAUCUAACCUUGAAAAGGAACAAAUGCUCACCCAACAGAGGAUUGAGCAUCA: 0.524 ratio
